Published values pooled from the literature.
Protocols differ between the studies behind these lines. ± marks the error that the study gave.
B1: enzyme C458A (Methanosarcina mazei, UniProt Q8PVB1); chain MSEQRSVPLREHLLALKPCRHGGLIQETSETYGIPENEILDFSANFNPLGSPFDYPENGLNFEDIIKKSCGKLLEYPDNRYVEFREAAARFVGLGVTPQSIVPGNGSTEIVRLVVESVIEKGDKVLLPWPTFGEYEMQCRITGAEPVCPSQEEVNTLPDEVLEEAKILFICNPNNPTGKLRTREELKVLAERCREHKTLLYVDEAFIELSDPSQSVADLPAENNYVFVMRSLTKDFAIPGIRMGFGIAPPAMADILNTARLSWNLGAIANNTGIALLNIEGGIDSPYLKKAREMILKEGETLKAKIDRIRGFEAGEVNVNFILVDVSKFMLNSSELTARLAARGVLVRDCVSFHGLGKNYIRVAVRTEKENDRLIAAIGDVITEWGREQAKNELQHVIEKASEEGIGGRKTCEYYPCHFEGQNCTFCFCPFYPCENEKTGGKWIQSSRGGRVWSCVDAHLVHKKEIAQKILDCLMHEGDTDELVKVAWKEVMEPIL
B2: GapA (Pseudomonas putida, UniProt Q88P44); chain MTLRIAINGFGRIGRNVLRALYTQGYRQDLQVVAINDLGDSTMNAHLLKYDSVHGTFDATVEADHESLTVNGDRIAVSAIRNPAELPWKAEAIDVVFECTGLFTDRAKAAAHLAAGAGKVIVSAPAKGADATVVYGVNHDILRASHQIISNASCTTNCLAPIAQVLHREFGIEQGLMTTIHAYTNDQVLTDVYHSDPYRARSATQSMIPSKTGAAEAVGLVLPELAGKLTGMAVRVPVINVSLVDLTVNLKREATAEQVNQLFLEASKHSKVLGYNALPLVSCDFNHNPLSSIFDANHTRANGRMLKVLAWYDNEWGFSNRMLDNCLALHRAG
B3: PYCR2 R119C (Homo sapiens, UniProt Q96C36); chain MSVGFIGAGQLAYALARGFTAAGILSAHKIIASSPEMNLPTVSALRKMGVNLTRSNKETVKHSDVLFLAVKPHIIPFILDEIGADVQARHIVVSCAAGVTISSVEKKLMAFQPAPKVICCMTNTPVVVQEGATVYATGTHALVEDGQLLEQLMSSVGFCTEVEEDLIDAVTGLSGSGPAYAFMALDALADGGVKMGLPRRLAIQLGAQALLGAAKMLLDSEQHPCQLKDNVCSPGGATIHALHFLESGGFRSLLINAVEASCIRTRELQSMADQEKISPAALKKTLLDRVKLESPTVSTLTPSSPGKLLTRSLALGGKKD
B4: enzyme (Treponema denticola, UniProt Q73LY9); chain QTNGTMPKRKFVIAFHASVNTDKTGKNLIKELPDLQKRGINTLFLEIGYNYQWKSDPKLYNKYVLSETVAREIAAECRRLSIDLIPEINCLGHQSWENETFALLKAYPELDETPGLYPSNKDIYCRSLCSSNEKVYTILFGLIDEITEVFSVKKIHVGLDEVFLIGEDACPLCRGKDKAELFAGAVNRLYDHCVKKRGFTMYMWGDRLIDSEDEDSGYKGEYESSCNGTYPAVDLIPKDIIICDWHYDELERYGSIPYFLNKGFRVLPTSFKGIKAVNALIDYSLLYKDNPAMLGHMYTAWDNFTNKNLSRYKPMVKTIDKLKAGN
B5: enzyme A167S/Y136L (Bradyrhizobium diazoefficiens, UniProt Q45222); chain MIQTERAVQQVLEWGRSLTGFADEHAVEAVRGGQYILQRIHPSLRGTSARTGRDPQDETLIVTFYRELALLFWLDDCNDLGLISPEQLAAVEQALGQGVPCALPGFEGCAVLRASLATLAYDRRDYAQLLDDTRCLSAALRAGHAQAVAAERWSYAEYLHNGIDSISYANVFCCLSLLWGLDMATLRARPAFRQVLRLISAIGRLQNDLHGCDKDRSAGEADNAVILLLQRYPAMPVVEFLNDELAGHTRMLHRVMAEERFPAPWGPLIEAMAAIRVQYYRTSTSRYRSDAVRGGQRAPA
B6: enzyme (Plasmodium falciparum, UniProt C0H484); chain MVREAHELLDGSRPIPIDKITYELSQNIILAFDNHENINNKDIQIEIEGRVGLVIDKNKNRIKLPINTDAIIENNYSDFQAGIDRESFEYLLDYFHNMTLKKRLSIRNNDNNNNNMDNNNNNMDNNNNIHIHNSGNNTNQTHSYDKNADDNKPTCNYSYDKKNACIYDFLELKTTKSIDKYYVIKNNNSRIRTTTYLNDDNKQETESMMIQSLQKDNLNIWNVYTGNNYDYFDDDEEDDDDDYNNNNNNNNGDTGTKTNIATNNTHGLTTSKSQHIYNNLVDKNDSIDYRISINIEYTKPISKLYLSKNTPVHERLKERTTFINTYLGLQVDMTKIKTKNNELYEVEIEIPSKTIFKAMSNLRNKKDSNYLHFICSNLVNNIRGICSQLNVFKKSKHMLKNTMITKLNNNSNNQNNLSLLPNHPNDDTISSKEKEKFKKYIHSVLPIVGDY
B7: PPM1A (human); sequence looked up; chain GAFLDKPKMEKHNAQGQGNGLRYGLSSMQGWRVEMEDAHTAVIGLPSGLESWSFFAVYDGHAGSQVAKYCCEHLLDHITNNQDFKGSAGAPSVENVKNGIRTGFLEIDEHMRVMSEKKHGADRSGSTAVGVLISPQHTYFINCGDSRGLLCRNRKVHFFTQDHKPSNPLEKERIQNAGGSVMIQRVNGSLAVSRALGDFDYKCVHGKGPTEQLVSPEPEVHDIERSEEDDQFIILACDGIWDVMGNEELCDFVRSRLEVTDDLEKVCNEVVDTCLYKGSRDNMSVILICFPNAPKVSPEAVKKEAELDKYLECRVEEIIKKQGEGVPDLVHVMRTLASENIPSLPPGGELASKRNVIEAVYNRLNPYKNDDTDSTSTDDMW
B8: enzyme (Salvia miltiorrhiza, UniProt A0A0B4VRM0); chain MAPLALLLLSLPVFFLLHNLYYRLRFRLPPGPRPWPIVGNLYDVKPLQFRCFADWAHSYGPIISVWFGSTLNVVVSSTELAKEVLKEKDQQLADRYRSRTATRLTKYGQDLIWADYGPHYVKVRKVCTVALFSAKSLESLRPIREDEVSAMVESIYNDCTAPGNSSKSLLLRKYLGAVSFNNITRIAFGKRYVDTEGRIHKQGEEMRSIADNRLRLGASRAIAEHIPWLRWMFPLNEEEFAKHAARRDRLTREIMEDHNIARQKSGGAKQHFCDALLTLKEKHDLTDDTIIGLLWDMIHAGMDTTAISVEWAMAELIRNPRVLQKVQEELDRVIGNERVMTELDFANLPYLRCVAKESLRLHPPTPLMLPHRASTNVKIGGYDIPKGSTVHVNVWAVARDPEVWKNPLEFRPERFLEDDVDIKGHDFRLLPFGAGRRICPGAQLGLDMVTSMLGRLLHHFKWAPPSGVSPEAINIAERPGVVTFMGTPLEAVATPRLPANLYERVAVDI
B9: SCO6712 S292F/V290N/Y229F (Streptomyces coelicolor, UniProt Q9XAL8); chain AKGITARTAPAGGEVRHLKMYAEKLADGQMGYGFEKGKASVPGPLIEVNEGDTLHIEFTNTMDVRASLHVHGLDYEISSDGTAMNKSDVEPGGTRTYTWRTHKPGRRDDGTWRPGSAGYWHYHDHVVGTEHGTGGIRNGLYGPVIVRRKGDVLPDATHTIVFNDMTINNRKPHTGPDFEATVGDRVEIVMITHGEFYHTFHMHGHRWADNRTGILTGPDDPSRVIDNKITGPADSFGFQIIAGEGVGAGAWMYHCHNQFHSDMGMVGLFLVKKPDGTIPGYEPHEHGGATAKSGESGEPTGGAAAHEHEH
UniProt P26368, sequence (whole entry, looked up): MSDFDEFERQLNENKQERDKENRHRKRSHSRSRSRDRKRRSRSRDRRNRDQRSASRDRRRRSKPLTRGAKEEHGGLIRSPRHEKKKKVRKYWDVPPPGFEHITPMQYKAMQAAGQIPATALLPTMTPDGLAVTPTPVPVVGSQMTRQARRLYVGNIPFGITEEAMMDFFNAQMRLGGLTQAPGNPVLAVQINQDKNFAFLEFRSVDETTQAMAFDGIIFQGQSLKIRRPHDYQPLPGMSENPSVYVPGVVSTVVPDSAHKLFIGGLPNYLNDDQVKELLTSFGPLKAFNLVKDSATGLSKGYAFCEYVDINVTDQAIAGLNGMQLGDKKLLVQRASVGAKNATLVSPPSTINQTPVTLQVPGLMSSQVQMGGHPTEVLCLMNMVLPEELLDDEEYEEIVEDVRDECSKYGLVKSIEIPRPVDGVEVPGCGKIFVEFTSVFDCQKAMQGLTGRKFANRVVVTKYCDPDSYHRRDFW
UniProt P13393, sequence (whole entry, looked up): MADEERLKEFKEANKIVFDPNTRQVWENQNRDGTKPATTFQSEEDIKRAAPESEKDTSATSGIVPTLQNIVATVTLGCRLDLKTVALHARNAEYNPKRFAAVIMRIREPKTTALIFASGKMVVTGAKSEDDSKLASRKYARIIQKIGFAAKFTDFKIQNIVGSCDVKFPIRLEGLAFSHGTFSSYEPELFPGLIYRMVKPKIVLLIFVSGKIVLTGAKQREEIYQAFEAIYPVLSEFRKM
UniProt P09546, sequence (whole entry, looked up): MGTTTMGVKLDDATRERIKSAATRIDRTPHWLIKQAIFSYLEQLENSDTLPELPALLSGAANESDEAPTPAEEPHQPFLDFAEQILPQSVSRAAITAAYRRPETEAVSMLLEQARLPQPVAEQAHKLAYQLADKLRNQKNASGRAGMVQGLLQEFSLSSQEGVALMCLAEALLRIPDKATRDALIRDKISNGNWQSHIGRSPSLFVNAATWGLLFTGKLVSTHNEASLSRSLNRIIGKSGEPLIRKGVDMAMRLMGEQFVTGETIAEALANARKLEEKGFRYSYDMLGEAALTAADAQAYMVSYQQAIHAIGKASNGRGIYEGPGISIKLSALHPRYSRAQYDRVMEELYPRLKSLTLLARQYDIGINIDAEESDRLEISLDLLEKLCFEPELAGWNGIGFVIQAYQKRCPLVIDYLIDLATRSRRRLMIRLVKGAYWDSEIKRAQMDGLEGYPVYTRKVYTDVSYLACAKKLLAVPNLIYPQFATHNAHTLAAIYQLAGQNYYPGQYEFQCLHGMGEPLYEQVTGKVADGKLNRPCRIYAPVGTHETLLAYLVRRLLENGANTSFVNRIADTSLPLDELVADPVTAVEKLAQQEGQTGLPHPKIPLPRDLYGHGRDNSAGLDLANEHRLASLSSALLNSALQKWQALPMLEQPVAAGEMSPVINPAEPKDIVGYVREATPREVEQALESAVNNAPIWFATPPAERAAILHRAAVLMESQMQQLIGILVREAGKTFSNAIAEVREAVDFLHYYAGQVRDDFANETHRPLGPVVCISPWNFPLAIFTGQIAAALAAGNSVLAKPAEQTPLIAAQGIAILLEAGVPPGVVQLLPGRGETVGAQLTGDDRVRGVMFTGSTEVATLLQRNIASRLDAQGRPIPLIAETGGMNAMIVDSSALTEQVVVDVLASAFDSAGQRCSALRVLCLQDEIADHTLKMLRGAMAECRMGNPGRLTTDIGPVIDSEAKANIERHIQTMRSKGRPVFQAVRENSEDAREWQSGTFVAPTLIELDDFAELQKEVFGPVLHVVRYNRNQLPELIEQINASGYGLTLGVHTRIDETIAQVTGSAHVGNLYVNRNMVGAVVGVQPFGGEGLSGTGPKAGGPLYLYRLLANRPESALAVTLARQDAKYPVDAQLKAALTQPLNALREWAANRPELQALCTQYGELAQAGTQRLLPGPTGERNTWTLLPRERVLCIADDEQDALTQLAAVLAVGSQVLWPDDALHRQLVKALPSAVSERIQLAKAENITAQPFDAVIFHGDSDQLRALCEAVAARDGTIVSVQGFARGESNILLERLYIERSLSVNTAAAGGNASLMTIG

`B1 (enzyme C458A)` gave a kcat of 0.22 ± 0.005 s⁻¹ (Nc1ncnc2c1ncn2[C@@H]1O[C@H](COP(=O)(O)OP(=O)(O)OP(=O)(O)O)[C@@H](O)[C@H]1O; steady-state kinetics; pH 8.5, 25 °C, apparent, anoxic, with: L-Thr 10 mM).
`TCCTGAAGGAGCGCCTATAAAAGGTCCTATCGTCGTCAAGTCAATCGGTCC (dsDNA; blunt; 5'-amino-C6 primer)` gave a Kd of 4.2 ± 1.6 nM (SPT15 full length assumed (Saccharomyces cerevisiae, UniProt P13393); EMSA; double-stranded DNA, one strand shown).
The kcat of `B2 (GapA)` is reported as 31.9 ± 0.4 s⁻¹ (O=C[C@H](O)COP(=O)(O)O; steady-state kinetics; with: NAD+).
For `B3 (PYCR2 R119C)`, the kcat was 1.5 ± 0.1 s⁻¹ (NC(=O)C1=CN([C@@H]2O[C@H](COP(=O)(O)OP(=O)(O)OC[C@H]3O[C@@H](n4cnc5c(N)ncnc54)[C@H](OP(=O)(O)O)[C@@H]3O)[C@@H](O)[C@H]2O)C=CC1; steady-state kinetics; pH 7.5, 37 °C, apparent, cofactor varied, with: DL-P5C 5000 µM).
With `B4 (enzyme)` the kcat was 3.3 ± 0.2 s⁻¹ (CC(=O)N[C@H]1[C@H](Oc2ccc([N+](=O)[O-])cc2)O[C@H](CO)[C@@H](O[C@@H]2O[C@H](CO)[C@H](O)[C@H](O)[C@H]2O)[C@@H]1O; steady-state kinetics; pH 6, 40 °C).
For `B5 (enzyme A167S/Y136L)`, the kcat was 0.05 ± 0.00467 s⁻¹ (C=C1CC[C@@H]2C(C)(C)CCC[C@@]2(C)[C@@H]1CC/C(C)=C/COP(=O)(O)OP(=O)(O)O; steady-state kinetics).
For `human RNA helicase A`, “log2 fold change” read -0.71 (CYB5R4 knockout human cells; PP4 interaction, 3xFLAG-PP4C IP-MS; concentration not given; reference: CYB5R4 KO over parental).
The kcat of `B6 (enzyme)` is reported as 0.31 ± 0.01 s⁻¹ (Nc1nc2c(ncn2[C@@H]2O[C@H](COP(=O)(O)OP(=O)(O)OP(=O)(O)O)[C@@H](O)[C@H]2O)c(=O)[nH]1; steady-state kinetics; with: Mn2+).
The kcat of `enzyme (Homo sapiens, UniProt Q08623)` is reported as 1.65 s⁻¹ (O=c1[nH]cc([C@@H]2O[C@H](COP(=O)(O)O)[C@@H](O)[C@H]2O)c(=O)[nH]1; steady-state kinetics; pH 7, 25 °C).
With `enzyme (UniProt A0A1H9C520)` the kcat was 4.76 s⁻¹ (OC[C@@H](O)[C@@H](O)[C@H](O)[C@@H](O)CO; steady-state kinetics; pH 8, 37 °C).
`B7 (PPM1A)` — result for “log2 fold change”: 0.18 (CYB5R4 knockout human cells; PP4 interaction, 3xFLAG-PP4C IP-MS; concentration not given; reference: CYB5R4 KO over parental).
`putA (Escherichia coli, UniProt P09546)` has a kcat of 3.4 ± 0.2 s⁻¹ (COC1=C(OC)C(=O)C(CC=C(C)C)=C(C)C1=O; steady-state kinetics; pH 7.4, 20 °C, with: proline 200 mM).
`B8 (enzyme)` gave a kcat of 0.000167 s⁻¹ (O=C(/C=C/c1ccc(O)cc1)O[C@H](Cc1ccc(O)c(O)c1)C(=O)O; steady-state kinetics; pH 7.5, 30 °C, not purified).
With `UUCUGUUCU (ssRNA)` the Kd was 4030 nM (U2AF2 148-342 (Homo sapiens, UniProt P26368); sequencing of bound RNA; RNA; motif only).
The kcat of `B9 (SCO6712 S292F/V290N/Y229F)` is reported as 1.38 ± 0.04 s⁻¹ (CCn1c(=NN=c2sc3cc(S(=O)(=O)O)ccc3n2CC)sc2cc(S(=O)(=O)O)ccc21; steady-state kinetics; pH 7, 37 °C, NaCl 150 mM, with: O2 cosubstrate).

Some of these lines once more:
`B8 (enzyme)` gave a kcat of 0.000167 s⁻¹ (O=C(/C=C/c1ccc(O)cc1)O[C@H](Cc1ccc(O)c(O)c1)C(=O)O; steady-state kinetics; pH 7.5, 30 °C, not purified).
With `UUCUGUUCU (ssRNA)` the Kd was 4030 nM (U2AF2 148-342 (Homo sapiens, UniProt P26368); sequencing of bound RNA; RNA; motif only).
